Published values collected from several papers.
A part holds a random share of what one study measured. Changes are numbered by the printed parent chain.

Block 1 — method: RNA Bind-n-Seq; molecule type: RNA; matrix: in vitro; tested at: not given; setting: RNA with constant flanks, ends assumed; relative to: input RNA pool; reading: higher = stronger binding
Target: RING finger protein unkempt homolog, zinc fingers 1-6, GST-SBP tag (UNK, Homo sapiens, UniProt Q9C0B0, residues 30-357)
Target sequence (chain): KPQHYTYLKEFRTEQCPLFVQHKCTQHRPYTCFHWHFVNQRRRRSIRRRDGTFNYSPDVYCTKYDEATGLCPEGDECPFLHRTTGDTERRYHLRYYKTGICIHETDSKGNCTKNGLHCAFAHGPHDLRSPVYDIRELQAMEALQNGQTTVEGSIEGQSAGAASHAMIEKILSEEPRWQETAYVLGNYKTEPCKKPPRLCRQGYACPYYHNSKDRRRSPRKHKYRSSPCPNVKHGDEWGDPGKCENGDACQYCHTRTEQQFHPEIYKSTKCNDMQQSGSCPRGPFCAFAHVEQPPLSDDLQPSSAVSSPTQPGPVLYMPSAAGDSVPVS
Strand | bound/input enrichment
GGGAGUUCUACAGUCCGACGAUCAAGGAAACAAUGUUUAGUAGUUUGAGAAGCCACGGGAUGUACAGUUUGGUUAUCAGCCUUAACCGGCUACACUAGUGGUAGGUAGUGUAGACAGAGAUGUAAAUGUGCUGUUCCAAAACUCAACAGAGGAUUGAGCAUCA | 0.974 ratio
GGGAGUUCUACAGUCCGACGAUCAUAUAUAUUCAUUUGCACUUACGUGAAACACAAACUUUGCUCUACAAAAUUUCGUGUUUCUCCGUGAUUUUAAAAUGCAUGUAUUGCAUGUAAAGGAAAACCAUUACAAUUAAUGUUUAUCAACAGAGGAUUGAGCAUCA | 0.169 ratio
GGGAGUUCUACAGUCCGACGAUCCUGGGGGCCGGGGCGGUGGCCUACGGCGUCCGCGAAUCCGUGUUCACCGUGGAAGGCGGUCACCGAGCCAUCUUUUUUAAUCGUAUUGGUGGCGUGCAGCAGGACACGAUCCUGGCCGAACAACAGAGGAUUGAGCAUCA | 0.0925 ratio
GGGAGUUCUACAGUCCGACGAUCAAGCUCCCAGUGUGGGUGGUGGAGGAUCAUCAGGAGGUUCUACCCUUUAUAUACCGGGCCACCGGCUCAAAGCAUCUUCCUGCCAGUAAUGUAAGUUUUUUACAUUUCGACUCACAUCCACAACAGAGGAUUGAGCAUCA | 0.161 ratio
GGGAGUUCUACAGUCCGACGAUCGCCACAUUUGCUAUUUCCAUCCUGCAACAGUUGGAGAUUGAGUUCAAGGAGACCCAAGCACCCGUAUUGGCCCCCACCAGAGAACUGGCUCAACAGAUCCAAAAGGUAAUUUUGGCUCUUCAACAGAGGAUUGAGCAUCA | 0.126 ratio
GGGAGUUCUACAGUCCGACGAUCCCAUUCUCUUAGUGAUGGGUUGGAUGAAGUCCAAAAAGCAGAAAUGAAAGCCUACAUGGAAUCCGUCAACAAUAUGCUGCUGACUGCAGAGGUAUAAGAGGAUAAGGCUUGAGAUCAGACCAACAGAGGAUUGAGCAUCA | 0.135 ratio
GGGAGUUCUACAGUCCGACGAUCGAAAACGGACGAUGUAUUACUAAGCUGGAAAACAUGGGGUUUCGAGUGGGACAAGGAUUGACCGAAAGGUUUACAAAAGAUACUGCAAGGUUCAAGGAUGAGUUAGAUAUCAUGAAGUUCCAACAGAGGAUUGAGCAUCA | 0.523 ratio
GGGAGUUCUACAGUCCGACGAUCGGGGUUCUUGCUGCCGUUCUAAUAUUUUUUUAAGCAUAGACAGACUUAUAAUUAAUAUACGUCCGUCCGUGACAUUGAAACAGUCAACUCGGAAAUUAACUAUAAGACUUGUUCUAUUUACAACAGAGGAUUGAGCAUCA | 0.655 ratio

Block 2 — method: RNA Bind-n-Seq; molecule type: RNA; matrix: in vitro; tested at: 365 nM; relative to: no-protein control; reading: higher = stronger binding
Target: RNA binding protein fox-1 homolog 2, RRM domain, GST-SBP tag (RBFOX2, Homo sapiens, UniProt O43251-10, residues 100-194)
Setting: natural RNA segment, single round, ends assumed
Strand | RBNS enrichment (R)
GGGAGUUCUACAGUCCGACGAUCGCCAAGAAGUGAUACAGGGUGUCAUAUGCAAAUUAGCAAACAGGAAAGGCGGCAAUAUUCAAACCAGAGACCCUGGGCAUCGGUGUAGCCAGUCUGAAGGCCUGAGCCAGUGGAAUUCUCGGGUGCCAA | 0.627
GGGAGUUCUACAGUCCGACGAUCCAAUUAUUGAAUUGAUACCUGUUUCUAGCAAAUAUAUGACAUGGCCUAGUGUCUUAAUUUUUGUCCCACUCCGUCAGUAAUUUGAAAAGUUGCCUUUAAAUCUUUUUAUUUGGAAUUCUCGGGUGCCAA | 0.49
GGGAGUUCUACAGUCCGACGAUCGGUUUUACCAUGUUGGCCAGGCUGGUCUUAGACUCCUGACCUCAGUUGAUCCACCUGCCUCAGCCUCUGCAUUCAGUUUAUUCACAUAUUUUUGGUAACUCCCAUGGCAGUGGAAUUCUCGGGUGCCAA | 0.477
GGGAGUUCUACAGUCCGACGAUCUGGCUGGGGAGACCUCAUACCCCAUCGCCCACCCCCGUCCUCCUGGUCAUUUCCUCCCAGACACUGUUUUGCCCCAGCGCCCUUCGGAAUCACAGUCCCGCCGUGUCUUAUGGAAUUCUCGGGUGCCAA | 0.609
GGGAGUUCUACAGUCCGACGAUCCUGACAACCCGUGUUUCCUUUAUUAAAAGUGAUUAGUACAACUGCUAGUUAUUUUCAACAAAUAAAGCCAUUAUGUUAAGAGGGGACUGUCCAUAGUGAGUGAAAGGUGGUGGAAUUCUCGGGUGCCAA | 0.459
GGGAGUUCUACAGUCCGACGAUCCCACCUCCUGCAGCAGCAGCAGUACAAGGGACUGGCUAGGAUGGAGUCAGGCAGCUCACACUGGACCAGUGUGGACCUUCCUUCCUCCCAUGGCAUGUGCAAGUAGGUCUUGGAAUUCUCGGGUGCCAA | 7.54
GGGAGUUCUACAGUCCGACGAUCUAGGGCUGAAAAGAAUGACCUACGUUUCUGUAUACAGCUGUGUUGCUUUUGAUGUUGUGUUACUGUACACAGAAGUGUGUGCACUGAGGCUCUGCGUGUGGUCCGUAUGGUGGAAUUCUCGGGUGCCAA | 1.35
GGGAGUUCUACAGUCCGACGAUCCUUUAGAGUGCAAGUAUCAUAAUUCCGUAUGAUAGAUGGGGCCUGGACACCCAUCUCAACAGGGUCACUUGGUAAUUAACAAUAGCCAUAUAAAUGCGGAUACAGGUUACUGGAAUUCUCGGGUGCCAA | 0.825

Block 3 — method: RNA Bind-n-Seq; molecule type: RNA; matrix: in vitro; tested at: 1 µM; setting: whole 134-nt RNA, ends assumed; added: 150 mM KCl; relative to: input library; reading: higher = stronger binding
Target: Ras GTPase-activating protein-binding protein 1, C-terminal RGG region (G3BP1, Homo sapiens, UniProt Q13283)
Chain of UniProt Q13283 (whole entry, looked up): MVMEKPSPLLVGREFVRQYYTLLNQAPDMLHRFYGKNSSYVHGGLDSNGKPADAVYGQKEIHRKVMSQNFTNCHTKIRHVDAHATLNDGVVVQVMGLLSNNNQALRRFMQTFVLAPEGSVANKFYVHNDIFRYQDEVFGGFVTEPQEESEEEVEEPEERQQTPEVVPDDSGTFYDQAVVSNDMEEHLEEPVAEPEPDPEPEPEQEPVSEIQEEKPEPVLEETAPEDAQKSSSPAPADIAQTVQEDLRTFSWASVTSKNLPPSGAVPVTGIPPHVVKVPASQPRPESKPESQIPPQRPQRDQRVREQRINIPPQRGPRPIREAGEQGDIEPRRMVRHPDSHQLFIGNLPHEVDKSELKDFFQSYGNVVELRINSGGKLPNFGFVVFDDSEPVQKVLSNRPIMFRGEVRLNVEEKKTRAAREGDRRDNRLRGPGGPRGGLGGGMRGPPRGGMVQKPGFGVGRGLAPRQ
Strand | log2 enrichment
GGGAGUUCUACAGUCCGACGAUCGUCCUGUGCUACACAUCGUAUGUACCGAAUCGGGAAAGGGAAAAAGGGUUUUUUUGGGAAAGUAUUAUGUUACGCCGUUCGGAUCUGCACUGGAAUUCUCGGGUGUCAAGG | -0.193
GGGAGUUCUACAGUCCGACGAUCUAACUUUAGAGGAGGAUCUGAUGGAUAUGGCAGUGGACGAGGAUUUGGGGAUGGCUAUAAUGGGUAUGGAGGAGGACCUGGAGGUGGCAAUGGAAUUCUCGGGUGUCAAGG | -0.972
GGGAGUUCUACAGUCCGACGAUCUGGUGUUAUUUUUGCACUACAAGGGCUCUGAAGACUGCCAGGCUUGAAAUGAAGAACGAUGUCACCUGCCUAUCACAGCCAGGUGACAAUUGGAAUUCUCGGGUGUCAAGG | -2.26
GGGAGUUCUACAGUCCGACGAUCUAACUUUAGAGGAGGAUCUGAUCGAUAUGGCAGUGGACGUGGAUUUGGGGAUGGCUAUAAUGGGUAUGGAGGAGGACCUGGAGGUGGCAAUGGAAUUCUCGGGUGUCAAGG | -1.31
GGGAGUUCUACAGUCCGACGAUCCUGUGCUACACAUCGUAUGUACCGAAUCGGGGUUUUUUGGGGUUUUUUGGGGUUUUUUGGGGAAAGUAUUAUGUUACGCCGUUCGGAUCUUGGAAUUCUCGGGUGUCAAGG | -0.146
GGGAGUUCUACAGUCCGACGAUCCACAGACAACACGCACCCACACAGACACAGAGGGAAGGGGUUGGGAUGGGGACAGGGUGCACAGCAGGGCGGGGUCGGACCCCAGCCCCUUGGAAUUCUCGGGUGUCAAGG | -0.915
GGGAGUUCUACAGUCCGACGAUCCAAGUCCUGUGCUACACAUCGUAUGUACCGAAUCGGGGCCCGGGCCCGGGGCCCGGAAAGUAUUAUGUUACGCCGUUCGGAUCUGCACUUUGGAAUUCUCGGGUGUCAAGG | -2.22
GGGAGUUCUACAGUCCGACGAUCCACAGACAACACGCACCCACACAGACACAGAGGGAAGGGGUUGGGAUGGGGACAGGGUGCACAGCAGGGCGGGGUAGGACCCCACCCCCUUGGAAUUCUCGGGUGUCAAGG | -0.849
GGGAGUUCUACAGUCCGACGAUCUCCUGUGCUACACAUCGUAUGUACCGAAUCGGGAAAAAAGGAAAAAAGGAAAAAAGGGGAAAGUAUUAUGUUACGCCGUUCGGAUCUGCAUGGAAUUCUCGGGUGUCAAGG | -1.83

Block 4 — method: DHFR PCA, deep sequencing; matrix: yeast; added: (+)-ABA 58 µM; relative to: wild-type fitted maximum; reading: higher = stronger binding
Target: ABI1, truncated, D143A, DHFR fusion (Arabidopsis thaliana)
Setting: methotrexate growth selection, single substitutions
Starting sequence: PYL1, truncated, DHFR fusion (Arabidopsis thaliana); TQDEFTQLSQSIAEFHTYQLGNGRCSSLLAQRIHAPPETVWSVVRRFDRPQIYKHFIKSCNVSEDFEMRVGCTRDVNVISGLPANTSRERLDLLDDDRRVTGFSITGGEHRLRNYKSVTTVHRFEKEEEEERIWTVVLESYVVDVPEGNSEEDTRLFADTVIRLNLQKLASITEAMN
Substitution | relative binding score [%]
V100C | 82.4
V137T | 12.6
S27A | 74.1
V78K | -0.825
E128I | 89.5
N149Q | 44.6
L93V | 96.1
V161T | 23
E151S | 82
A35C | 80.8
V44A | 58.1
F103I | 31
R99L | 97.4
N85A | 88.9
F157A | 11.8
E38N | 67.9
S26K | 68.6
